Measured values gathered from unrelated publications.
Parts stem from different laboratories: compare values within a part only. Positions count from the first letter of the parent shown.

Set 1 — method: RNA Bind-n-Seq; molecule type: RNA; matrix: in vitro; tested at: 365 nM; reference: no-protein control; reading: higher = stronger binding; quantity: RBNS enrichment (R)
Target: RNA binding protein fox-1 homolog 2, RRM domain, GST-SBP tag (RBFOX2, Homo sapiens, UniProt O43251-10, residues 100-194)
Notes: natural RNA segment, single round, ends assumed
Target sequence (chain): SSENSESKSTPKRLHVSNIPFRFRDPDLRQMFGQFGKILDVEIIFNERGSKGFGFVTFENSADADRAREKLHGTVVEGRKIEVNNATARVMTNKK
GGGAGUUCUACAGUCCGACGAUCCCAGGUCCUGUCUCAGCUGCAACCCAUAGAACUGCAGGGCCAGGCUAGGUGCCCCUUGGAUAGAUGGGUGGCCAAGCCCCCUGGCCUGAAGGCCCGUCUCUGCAUCUCUAUGGAAUUCUCGGGUGCCAA: 0.773
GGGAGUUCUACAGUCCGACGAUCUGCUAUGUUGCAGUUUGUUUGCUUGUUUUUUUCUUCUGAGCUUUGUUUCUAGUACACGAUAUGACGGGACCAAGUACAAGCUGGUGGUGGACAGAGCUGGGUGCCACAGUUGGAAUUCUCGGGUGCCAA: 0.506
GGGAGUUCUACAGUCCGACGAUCUAUAAUCCCAGCACUUUGGAAGGCCAAGGCAGGAGGAUCACUUGAGGCCAGGAGUUCGAGACCAGCCUGAGCAACAUGGUGAGACCCUGUCUCUACAAAAAAAAAAUUUAUGGAAUUCUCGGGUGCCAA: 0.588
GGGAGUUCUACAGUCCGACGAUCGCUUCCCUGGCUGAGUCACAGGGCAGGGAAAUAAAGAAGUCUGGAGUGUUAGGACGGUUUGAGAGGGAAGGAGAGAGAGAAGAAAGACGAACCACUUGAGACUGAGACUGUGGAAUUCUCGGGUGCCAA: 1.11
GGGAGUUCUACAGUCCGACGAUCCUGUCGCACACCCCUUCCUCUCCCAUGCAGUCACCUCAGGACUCCCGACAUACAUCACAAAGGCUGCUUCAUGGCUGGGUGUGGGACCAGAUGCCAGCAAGGAUGGAAGCUGGAAUUCUCGGGUGCCAA: 0.556
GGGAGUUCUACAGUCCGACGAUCUUACCUGGCCUGUAAGCUUCUUACUGAUUGAUUGUCUAAGGCUCCUGUCAGAGCCCACCUAGAAGCAGGCUCCUAGUGAUACUUUGUUUCCAAGGCAGAAGUGGCCCAUGUGGAAUUCUCGGGUGCCAA: 1.4
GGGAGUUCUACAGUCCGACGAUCAUCUCUUCACUGUUUCUUUUUUAGGACUCCCUUUGCAAGGAGCAACUGUAAUAUUGUGGGACUAACAUGGAUGUAACGUUUAAAAAAAAGAUCAGGAUUAUUAGUAACAAUGGAAUUCUCGGGUGCCAA: 1.47
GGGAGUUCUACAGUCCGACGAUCUACUAUUUAUUUUACCCCACACCCUAAGUUGGCAUACUUAUUCCCAGUCUUACUCCUGAUCUCUUUAGUCCCAAUCCUGCCAAUAAAAAGCAUCGUUUAACUUGUUCUAUUGGAAUUCUCGGGUGCCAA: 1.21
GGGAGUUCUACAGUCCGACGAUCAUAAGAGCUAAUCUCACCACUACAUGCCCAUCUAUGGAAGAUCUAACAGAAGCUUAGGGAACUAAGCAACAUAACAUAUCCAGCAAAAGGCAAGAUUCUAACCUAUACAGUGGAAUUCUCGGGUGCCAA: 0.222
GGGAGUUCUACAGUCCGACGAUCGAUGAGUCCUUCCCUGCCUGCAAGAUUGAGUUCUGAAGAGCCGCCCUCCCUUCCCCAAGGAUCCACUCCCCCAGCUCCUUUAGAGAAUGGCUACUGCUGAGUCCUUUGGGUGGAAUUCUCGGGUGCCAA: 1.55
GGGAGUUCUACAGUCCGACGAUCAAACACUUGGAACAACAAAGACCAUAAGCAUCAUUUAGCAGUUGUAGCCAUUUUCUAGUUAACUCAUGUAAACAAGUAAGAGUAACAUAACAGUAUUACCCUUUCACUGUUGGAAUUCUCGGGUGCCAA: 0.867
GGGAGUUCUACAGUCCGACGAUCAUUUUUUUUGUACAUUUUGGCUGCAGUAUUGGUGGUAGAAUAUACUAUAAUAUGGAUCAUCUCUACUUCUGUAUUUAUUUAUUUAUUACUAGACCUCAACCACAGUCUUCUGGAAUUCUCGGGUGCCAA: 0.573

Set 2 — target: CCNB2, cyclin fold, Cln2 fusion (human); method: yeast growth competition, sequencing; matrix: yeast; notes: weak parent motif; reference: not given; reading: higher = stronger binding; quantity: normalised enrichment score
Starting sequence: E2F1 docking peptide (human); PPVKRRLDLETDH
PPVKRRLDLSTDH [E10S]: 0.44
PPVKRRLDLETDE [H13E]: 0.421
PPVKRVLDLETDH [R6V]: 0.0733
PPVKRRLTLETDH [D8T]: 0.939
PPPKRRLDLETDH [V3P]: 0.616
PPVKRRIDLETDH [L7I]: 0.554
WPVKRRLDLETDH [P1W]: 0.864
PPVKRRLDLETDP [H13P]: 0.331
PPVKRRLDLATDH [E10A]: 0.353
PPHKRRLDLETDH [V3H]: 0.272

Set 3 — method: DHFR PCA, deep sequencing; matrix: yeast; added: (+)-ABA 0.11 µM; reference: wild-type fitted maximum; reading: higher = stronger binding; quantity: relative binding score
Target: ABI1, truncated, D143A, DHFR fusion (Arabidopsis thaliana)
Notes: methotrexate growth selection, single substitutions
Starting sequence: PYL1, truncated, DHFR fusion (Arabidopsis thaliana); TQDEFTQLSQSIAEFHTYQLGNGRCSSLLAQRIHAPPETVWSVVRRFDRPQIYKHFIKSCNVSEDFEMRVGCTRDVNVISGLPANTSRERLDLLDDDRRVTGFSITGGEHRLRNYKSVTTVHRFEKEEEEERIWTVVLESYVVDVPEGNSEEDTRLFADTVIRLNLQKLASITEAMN; partner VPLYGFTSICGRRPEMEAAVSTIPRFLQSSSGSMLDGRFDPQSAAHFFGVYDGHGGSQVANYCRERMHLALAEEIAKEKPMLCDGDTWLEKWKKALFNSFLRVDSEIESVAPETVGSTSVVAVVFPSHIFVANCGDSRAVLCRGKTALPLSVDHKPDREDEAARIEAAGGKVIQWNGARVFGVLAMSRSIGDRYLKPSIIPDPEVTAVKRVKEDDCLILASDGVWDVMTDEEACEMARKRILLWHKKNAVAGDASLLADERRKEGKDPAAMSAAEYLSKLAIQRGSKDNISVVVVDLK
P83I: 2.04%
I57T: -12.7%
V78P: 0.244%
T120M: -5.81%
R24N: -1.07%
T120H: -4.01%
E89W: 8.7%

Other studies, line by line
PhoQ, residues 284 288 289 292 302 303 STVVAA  fold induction (PhoP, residues 12 14 15 18 19 TPWLV (Escherichia coli, UniProt P23836); Sort-seq, refers to: YFP reporter; E. coli; PhoQ-PhoP variant library, added: 10 µM Mg2+; reference: high Mg2+ state, higher = stronger signaling): 1.39

Excerpt of the above (set 1):
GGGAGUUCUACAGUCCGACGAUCAUAAGAGCUAAUCUCACCACUACAUGCCCAUCUAUGGAAGAUCUAACAGAAGCUUAGGGAACUAAGCAACAUAACAUAUCCAGCAAAAGGCAAGAUUCUAACCUAUACAGUGGAAUUCUCGGGUGCCAA: 0.222
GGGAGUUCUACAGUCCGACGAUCGAUGAGUCCUUCCCUGCCUGCAAGAUUGAGUUCUGAAGAGCCGCCCUCCCUUCCCCAAGGAUCCACUCCCCCAGCUCCUUUAGAGAAUGGCUACUGCUGAGUCCUUUGGGUGGAAUUCUCGGGUGCCAA: 1.55
